Measurements pooled from the literature.
“And” joins repeats or separate records; there may be more than shown. ± gives the spread as reported. Converted amounts (≈) assume the structure as drawn.

SMILES	tested on	test	system	conditions	scale	measurement	value
CNC(=O)c1ccc(-c2cnc3ncc(Cc4ccc5ncccc5c4)n3n2)cc1F		measured: Diarrhea, all grades	cancer patients	oral, dose not given, dose escalation, any causality		patients with adverse event	24%
CCO[C@H]1CCN(Cc2c(OC)cc(C)c3[nH]ccc23)[C@H](c2ccc(C(=O)O)cc2)C1			PNH patients, active haemolysis	oral, 50 mg, 4 weeks, treatment		incidence of flatulence	0%
CCn1ncc2c1-c1cnc(N)c(c1)O[C@H](C)c1cc(F)ccc1-c1nn(C)nc1C2			female BALB/c nude mice, PDX	oral, 5 mg/kg once daily for 1 days, 1 h		unbound plasma concentration	510 ± 54 nM
COc1cccc(-c2n[nH]c(SCc3ccccn3)n2)c1OC			Sprague-Dawley rats, both sexes	oral dietary, 30 mg/kg/day, day 7, 12 h		plasma concentration	1490 ng/mL
CN(C(=O)n1cnc(-c2ccc[n+]([O-])c2)c1)[C@H]1CC[C@H](O)CC1			rat, cortex	oral, 10 mg/kg single dose, 1 h		tissue concentration	9.1 ± 0.5 ng/g
CCN1CCN(Cc2ccc(NC(=O)c3ccc(C)c(NC(=O)c4cncc(-c5cccs5)c4)c3)cc2C(F)(F)F)CC1		LC-MS/MS	C57BL/6 mouse, plasma	intraperitoneal, 15 mg/kg single dose, 2 h		mean plasma concentration	238 ng/mL
COc1ncc(-c2nc3c(n2C(C)C)[C@H](c2ccc(Cl)cc2)N(c2cc(Cl)cn(C)c2=O)C3=O)c(OC)n1			human patients, plasma	oral, 30 mg, cycle 1 day 1, low-dose		geometric mean Cmax	177 ng/mL
Cc1ccc(Sc2ccccc2N2CCNCC2)c(C)c1		measured: ureteric calculus	healthy adult men	oral, 20 mg daily, 12 days		participants with TEAE	0%
O=S(=O)(c1ccc(-c2ccc3nccc(Nc4ccncn4)c3c2)cc1)N1CCOCC1			female BALB/c mice, brain	intraperitoneal, 10 mg/kg, 8 h, mean		brain concentration	0 ng/g
CCOc1c([C@H](C)n2nc(C)c3c(N)ncnc32)cc(Cl)c(F)c1[C@@H]1CNC(=O)C1		measured: ΔQTcF > 60 ms	previously treated B-cell malignancy	oral, dose not given, all doses, overall population		share of patients	1.4%
CC(C)C[C@H](NC(=O)C[C@H](O)[C@H](CC(C)C)NC(=O)[C@H](Cc1c[nH]cn1)NC(=O)CNC(=O)[C@@H](NC(=O)[C@H](C)NC(=O)[C@H](Cc1c[nH]c2ccccc12)NC(=O)[C@H](CCC(N)=O)NC(=O)[C@@H](Cc1ccccc1)NC(=O)COCCOCCNC(=O)CN1CCN(CC(=O)O)CCN(CC(=O)O)CCN(CC(=O)O)CC1)C(C)C)C(N)=O [lutetium-177 labelled]			BALB/c nu/nu mice, female, lumbar lymph node metastases	intravenous, 50 pmol, 1 h		tissue uptake	19 ± 4 %ID/g
Cc1ccc([C@@H]2O[C@H](CO)[C@@H](O)[C@H](O)[C@H]2O)cc1Cc1ccc(-c2ccc(F)cc2)s1			Japanese type 2 diabetes patients	200 mg, day 2, 24 h urine collection	baseline: baseline	urinary chloride excretion change	-27.1 mEq
Cc1cc(C)c(CNC(=O)c2cc(Cl)c3c(c2C)O[C@@](C)([C@H]2CC[C@H](N(C)C)CC2)O3)c(=O)[nH]1		CTCAE v4.0, measured: blood bilirubin increased	human relapsed/refractory NHL	oral, 200 mg once daily, onset after cycle 1 day 1, overall treatment period		patients with grade ≥3 TEAE	4.2%
CC(C)(C(=O)N1CCOc2c(C#N)cncc2C1)C(F)F			human, both sexes	oral, 10 mg single dose		subjects with tachycardia TEAE	0%
CC(C)n1c(Nc2cccnc2)nc2cnc(Nc3ccc(N4CCN(C)CC4)cc3)nc21		measured: creatine phosphokinase increased	healthy male subjects	oral, 100 mg, study, added: itraconazole		subjects with adverse event	7.1%
CCc1cc(C(=O)NC)c2nccc(N3CCc4c(cc(Cn5ccnc5)cc4-c4cn(C)nc4C(F)(F)F)C3=O)c2c1			Sprague Dawley rat	oral, 100 mg/kg once daily, 7 days		liver weight	12.2 ± 0.388 g
Cn1cc(-c2ccc(-c3cncc(Cl)c3N3CCC4(CCNC4=O)CC3)cc2)cn1	COLO 205	gene expression, microarray, measured: CA9 mRNA		concentration not given, 6 h	baseline: untreated cells	log2 fold change	-1.09
O=C(c1cccnc1-c1ccncc1)N1CCC(O)(Cc2ccccc2)CC1			healthy Japanese adults, plasma	oral, 1200 mg single dose		terminal half-life	5.08 h
Cc1cc(OCC(=O)OCCN)cc(C)c1Cc1ccc(O)c(C(C)C)c1.Cl		LC-MS/MS, measured: liberated sobetirome	mouse, liver	intraperitoneal, 1.5 µmol/kg, 30 min	baseline: direct sobetirome injection	sobetirome level	decreased
C=CC(=O)NC1CCN(c2ncc3ncnc(Nc4ccc(Oc5ccc6c(c5)ncn6C)c(C)c4)c3n2)CC1		measured: total radioactivity	healthy male volunteers, plasma	intravenous, 100 µg, 14C microtracer, geometric mean		terminal half-life	127 h
COc1cccc(OC)c1-c1cc(C(=O)NC2(C(=O)O)C3CC4CC(C3)CC2C4)nn1-c1ccc(C(=O)N(C)CCCN(C)CCCN(C)C(=O)CN2CCN(CC(=O)[O-])CCN(CC(=O)[O-])CCN(CC(=O)[O-])CC2)cc1C(C)C.[177Lu+3] (stereo not shown)			mouse, HT-29 xenograft, lung	4 h post injection		tissue uptake	4.5 %ID/g
O=C1CSCCN1c1ccc(CO[C@@H]2COc3nc([N+](=O)[O-])cn3C2)cc1			aqueous buffer	pH 7.4		aqueous solubility	29 µg/mL (≈ 74.3 µM)
COc1ccc2c(c1)CN(C(=O)CCN1CCC(Cc3ccccc3)CC1)CC[S@@+]2[O-]		telemetry	conscious male beagle dogs	intravenous, NG, 1 h		systolic blood pressure	140 ± 28 mmHg

SMILES	tested on	test	system	conditions	scale	measurement	value
C[C@H](CCC(=O)NCC(=O)O)[C@H]1CC[C@H]2[C@@H]3CC[C@@H]4C[C@H](O)CC[C@]4(C)[C@H]3CC[C@]12C			human, plasma	endogenous baseline diurnal	baseline: daily mean concentration	relative peak deviation	180 ± 20%
CCN1/C(=C/C(C)=O)Sc2ccc(F)cc21			cynomolgus monkey	oral, 30 mg/kg, 2 h post-dose	baseline: pre-dose	diastolic blood pressure change	99 ± 2.7%
CNCc1ccc(-c2[nH]c3cc(F)cc4c3c2CCNC4=O)cc1			human patients	oral, 240 mg twice daily, all grades		diarrhoea incidence	33.3%
CC(C)Oc1c(NC(=O)c2ccc(NC(=O)[C@H](CC(N)=O)NC(=O)c3ccc(/N=N/c4ccccc4)cc3)cc2)ccc(C(=O)N/N=C/c2ccc(C(=O)O)s2)c1O		absorbance	DMSO	30 °C, PSS to ground state relaxation		thermal half-life	22.4 h
O=C(O)CCC(=O)O.[2H]C([2H])([2H])Oc1cc(C)c2[nH]ccc2c1CN1CC[C@@H](C2CC2)C[C@H]1c1ccc(C(=O)O)cc1			healthy Chinese subjects	100 mg, single ascending dose		TEAE urine leukocyte positive	16.7%
O=C(Nc1cnccc1Cl)N1CCN(Cc2ccc3c(c2)OC(F)(F)O3)CC1			elderly men and women, plasma	oral, 100 mg once daily, day 10, normalized to 10 mg		dose-normalized AUC(0-tau)	937 ng·h/mL
COc1cc(Nc2ncc3c(n2)-c2ccc(Cl)cc2C(c2c(F)cccc2OC)=NC3)ccc1C(=O)O		measured: Nausea, grade 1	cancer patients, phase 1/2	oral, dose not given, added: pembrolizumab		patients with adverse event	21%
CCO[C@H]1CCN(Cc2c(OC)cc(C)c3[nH]ccc23)[C@H](c2ccc(C(=O)O)cc2)C1			severe hepatic impairment patients	oral, 200 mg, geometric mean		unbound AUC(0-t)	13700 ng·h/mL
CC(C)C[C@H](NC(=O)C[C@H](O)[C@H](CC(C)C)NC(=O)[C@H](Cc1c[nH]cn1)NC(=O)CNC(=O)[C@@H](NC(=O)[C@H](C)NC(=O)[C@H](Cc1c[nH]c2ccccc12)NC(=O)[C@H](CCC(N)=O)NC(=O)[C@@H](Cc1ccccc1)NC(=O)COCCOCCNC(=O)CCC(C(=O)O)N1CCN(CC(=O)O)CCN(CC(=O)O)CCN(CC(=O)O)CC1)C(C)C)C(N)=O (stereo partly shown) [lutetium-177 labelled]			BALB/c nu/nu mice, pancreas	intravenous, 250 pmol, 1 h, added: PA 300 µg		tissue uptake	5 ± 1 %ID/g
O=C(O)CSc1nnc(Br)n1-c1ccc(C2CC2)c2ccccc12			KM mouse, chronic hyperuricaemia model	dose not given, day 14		body weight	32.1 g and 28.4 g and 36.4 g and 33.8 g and 28.1 g and 32.8 g
N#C[C@@]1(c2ccc3c(N)ncnn23)O[C@H](CO)[C@@H](O)[C@H]1O		plasma protein binding	rat plasma	10 µM		unbound fraction	0.918
NS(=O)(=O)c1ccc(-n2nc(C(F)(F)F)cc2-c2ccc(C(=O)O)cc2)cc1			Sprague-Dawley rat	oral, 20 mg/kg of celecoxib, 8 h		blood-to-plasma ratio	1.98
C[C@H](CCC(=O)NCCS(=O)(=O)O)[C@H]1CC[C@H]2[C@@H]3[C@H](O)C[C@@H]4C[C@H](O)CC[C@]4(C)[C@H]3C[C@H](O)[C@]12C			human, plasma	endogenous control diurnal	baseline: daily mean concentration	relative peak deviation	114 ± 13%
CSc1ccccc1C(=O)NCCn1cc(C(=O)NCc2cccc(C)n2)c(=O)c2cc3c(cc21)OC(F)(F)O3			Sprague-Dawley rat, male, whole blood	intravenous, 5 mg/kg of parent compound		half-life	0.36 ± 0.01 h
CCCCCCCCCCCCCCCC(=O)N[C@@H](CCC(=O)NCCCC[C@@H]1NC(=O)[C@H]([C@@H](C)CC)NC(=O)[C@@H](NC(=O)[C@@H]2CCCN2C(=O)[C@H](Cc2ccccc2)NC(=O)[C@H](Cc2c[nH]cn2)NC(=O)[C@@H](NC(=O)[C@H](CC(=O)O)NC(=O)CC(C)C)[C@@H](C)O)CSSC[C@@H](C(=O)N[C@@H](CCCCN)C(N)=O)NC(=O)CNC(=O)[C@H](CCCCN)NC(=O)[C@H](CO)NC(=O)[C@H](CCCNC(=N)N)NC(=O)[C@@H]2CCCN2C(=O)[C@H](CCC(=O)O)NC(=O)[C@H](Cc2ccccc2)NC1=O)C(=O)O			healthy volunteers, plasma	subcutaneous, 60 mg	baseline: parent plus metabolites	AUC(0-inf) share of total	55.2 ± 4.96%
CN(C)CCNS(=O)(=O)c1ccc(N/C=C2\C(=O)Nc3ccccc32)cc1	Cyclin-dependent kinase 2 (CDK2, Homo sapiens, UniProt P24941)	binding, thermal shift				Kd	5.69 µM
Cl.[2H]C([2H])([2H])CC(=O)c1cnc(NC(=O)C2CC2)cc1Nc1cccc(-c2ncn(C([2H])([2H])[2H])n2)c1OC		median	human	oral, 50 mg single dose, fasted, liquid		Tmax	1 h
Cc1cccc(NS(=O)(=O)c2cc(C(=O)Nc3ccccc3C(=O)N3CCOCC3)ccc2Cl)c1	Cyclin-dependent kinase 2, with cyclin A (CDK2, Homo sapiens, UniProt P24941)					Kd	> 100 µM
CCONC(=O)N1CCC[C@H](C(=O)NCc2nc(-c3ccc(C#N)cc3)cs2)C1			Sprague-Dawley rat, male, urine	intravenous, 1 mg/kg, 24 h	baseline: dose	urinary excretion	1.9%
CC(C)Oc1c(NC(=O)c2ccc(NC(=O)[C@H](CC(N)=O)NC(=O)c3ccc(NC(=O)c4ccc(C#N)cc4)cc3)cc2)ccc(C(=O)Nc2ccc(C(=O)O)cc2)c1O	Escherichia coli ATCC 25922		neutropenic male CD-1 mice, muscle	iv then sc, 67.5 mg/kg/day, 24 h after infection, thigh infection model		concentration	102 ± 3.6 ng/mL
CCO			human	concentration not given, treatment-emergent adverse event		blood fibrinogen decreased	0%
CN1CCN(c2cccc3c2CCN(C(=O)/C=C/c2c(-n4cnnn4)ccc(Cl)c2F)[C@@H]3C(=O)Nc2ccc(C(=O)O)cc2)C(=O)C1			healthy human subjects	intravenous infusion, 1 mg/h, 5 days		subjects with infusion site pain	0%
CC(C)[C@H](C(=O)Nc1ccc(C(=O)NO)cc1)c1ccccc1			whole blood	10.0 ng/mL, 0 h, 4 °C, stability on ice		measured concentration	10.1 ng/mL

For quick reference, copied from above:
SMILES	tested on	test	system	conditions	scale	measurement	value
Cc1ccc(Sc2ccccc2N2CCNCC2)c(C)c1		measured: ureteric calculus	healthy adult men	oral, 20 mg daily, 12 days		participants with TEAE	0%
O=S(=O)(c1ccc(-c2ccc3nccc(Nc4ccncn4)c3c2)cc1)N1CCOCC1			female BALB/c mice, brain	intraperitoneal, 10 mg/kg, 8 h, mean		brain concentration	0 ng/g
CCOc1c([C@H](C)n2nc(C)c3c(N)ncnc32)cc(Cl)c(F)c1[C@@H]1CNC(=O)C1		measured: ΔQTcF > 60 ms	previously treated B-cell malignancy	oral, dose not given, all doses, overall population		share of patients	1.4%
CC(C)C[C@H](NC(=O)C[C@H](O)[C@H](CC(C)C)NC(=O)[C@H](Cc1c[nH]cn1)NC(=O)CNC(=O)[C@@H](NC(=O)[C@H](C)NC(=O)[C@H](Cc1c[nH]c2ccccc12)NC(=O)[C@H](CCC(N)=O)NC(=O)[C@@H](Cc1ccccc1)NC(=O)COCCOCCNC(=O)CN1CCN(CC(=O)O)CCN(CC(=O)O)CCN(CC(=O)O)CC1)C(C)C)C(N)=O [lutetium-177 labelled]			BALB/c nu/nu mice, female, lumbar lymph node metastases	intravenous, 50 pmol, 1 h		tissue uptake	19 ± 4 %ID/g
Cc1ccc([C@@H]2O[C@H](CO)[C@@H](O)[C@H](O)[C@H]2O)cc1Cc1ccc(-c2ccc(F)cc2)s1			Japanese type 2 diabetes patients	200 mg, day 2, 24 h urine collection	baseline: baseline	urinary chloride excretion change	-27.1 mEq
Cc1cc(C)c(CNC(=O)c2cc(Cl)c3c(c2C)O[C@@](C)([C@H]2CC[C@H](N(C)C)CC2)O3)c(=O)[nH]1		CTCAE v4.0, measured: blood bilirubin increased	human relapsed/refractory NHL	oral, 200 mg once daily, onset after cycle 1 day 1, overall treatment period		patients with grade ≥3 TEAE	4.2%
CC(C)(C(=O)N1CCOc2c(C#N)cncc2C1)C(F)F			human, both sexes	oral, 10 mg single dose		subjects with tachycardia TEAE	0%
